Measurements from different studies.
Parts stem from different laboratories: compare values within a part only.

Block 1 — technique: universal PBM; molecule type: double-stranded DNA, one strand shown; medium: in vitro; concentration: 600 nM; direction: higher = stronger binding
Target: Sal-like protein 4, full length isoform A (SALL4, Homo sapiens, UniProt Q9UJQ4, residues 1-1053)
Chain of UniProt Q9UJQ4 (whole entry, looked up): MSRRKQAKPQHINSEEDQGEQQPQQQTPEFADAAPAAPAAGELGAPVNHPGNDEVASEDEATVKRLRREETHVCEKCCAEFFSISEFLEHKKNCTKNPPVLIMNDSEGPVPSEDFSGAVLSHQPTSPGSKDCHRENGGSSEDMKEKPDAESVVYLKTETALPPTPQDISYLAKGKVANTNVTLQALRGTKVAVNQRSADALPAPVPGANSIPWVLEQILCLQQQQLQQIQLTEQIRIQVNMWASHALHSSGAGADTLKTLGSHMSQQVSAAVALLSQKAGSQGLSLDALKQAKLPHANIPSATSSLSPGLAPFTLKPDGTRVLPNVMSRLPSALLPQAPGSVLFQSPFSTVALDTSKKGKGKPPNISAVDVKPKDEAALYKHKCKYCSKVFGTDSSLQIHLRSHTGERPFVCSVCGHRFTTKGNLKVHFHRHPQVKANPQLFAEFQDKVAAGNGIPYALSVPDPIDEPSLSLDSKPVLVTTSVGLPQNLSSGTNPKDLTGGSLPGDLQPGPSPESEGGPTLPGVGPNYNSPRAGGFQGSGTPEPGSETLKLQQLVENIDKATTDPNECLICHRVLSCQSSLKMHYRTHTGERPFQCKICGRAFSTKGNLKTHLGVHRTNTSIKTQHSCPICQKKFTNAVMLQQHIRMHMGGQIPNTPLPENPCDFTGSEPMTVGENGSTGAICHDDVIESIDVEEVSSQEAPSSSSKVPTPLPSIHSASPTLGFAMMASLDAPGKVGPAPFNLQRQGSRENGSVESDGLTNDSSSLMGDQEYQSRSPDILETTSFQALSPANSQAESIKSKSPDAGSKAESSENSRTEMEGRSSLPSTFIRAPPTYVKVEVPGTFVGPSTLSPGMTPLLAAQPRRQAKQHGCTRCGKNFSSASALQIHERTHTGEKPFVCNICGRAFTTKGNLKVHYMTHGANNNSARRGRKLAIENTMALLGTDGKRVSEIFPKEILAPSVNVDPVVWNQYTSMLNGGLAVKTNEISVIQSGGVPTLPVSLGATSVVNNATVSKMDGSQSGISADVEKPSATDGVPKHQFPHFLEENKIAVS
Setting: 8-mer, flanks averaged, mean of replicates
`CGCTATCA` has an E-score of 0.0676.
`AATCGGCT` has an E-score of 0.083.
With `CATCCCCA` the E-score was -0.197.
The E-score of `CTAAGCAG` is reported as -0.235.
The E-score of `ACCTTAGA` is reported as 0.00598.
For `AGCCAGAT`, the E-score was -0.0113.
The E-score of `ATAAGGGC` is reported as 0.0213.
With `AACCACTG` the E-score was -0.108.
The E-score of `AAGTTGGA` is reported as 0.149.
The E-score of `CTGCATTC` is reported as -0.0165.
With `ACCCGTAG` the E-score was -0.281.
The E-score of `AGGTACCG` is reported as -0.262.
With `ATTGGGGG` the E-score was 0.00464.
`CCACATCA` gave an E-score of 0.0944.
With `AAGTTTTC` the E-score was 0.174.
`CGTTGCCA` has an E-score of 0.021.
For `CTCCTGTA`, the E-score was -0.0689.
For `CATCTACC`, the E-score was -0.0403.
With `CGTAAAGC` the E-score was -0.0864.
The E-score of `GGACGACA` is reported as -0.138.
`CGCAAAAA` has an E-score of 0.181.
With `CAAATCCG` the E-score was 0.0144.
The E-score of `ACGTGCCT` is reported as -0.17.
For `GGCCATAC`, the E-score was -0.169.
`CTCTTCTC` gave an E-score of -0.0293.

Block 2 — technique: RNA Bind-n-Seq; molecule type: RNA; medium: in vitro; concentration: 365 nM; reference: no-protein control; direction: higher = stronger binding
Target: RNA binding protein fox-1 homolog 2, RRM domain, GST-SBP tag (RBFOX2, Homo sapiens, UniProt O43251-10, residues 100-194)
Setting: natural RNA segment, single round, ends assumed
Target sequence (chain): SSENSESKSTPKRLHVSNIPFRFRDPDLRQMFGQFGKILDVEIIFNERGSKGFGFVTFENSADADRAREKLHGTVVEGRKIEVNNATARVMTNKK
`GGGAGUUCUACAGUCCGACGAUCACCAGCAGGUCCUGCAGCUUACCAAGCCCAGGGUGUGUGGGGCCCUCACGCAGUUCGACUGGGAAAAUACAGAAGGGCUGCAGAGGCAAUAAGAAGGAAGAAAGGGAAGUUGGAAUUCUCGGGUGCCAA`: “RBNS enrichment (R)” 0.379.
`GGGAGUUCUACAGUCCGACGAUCACAUGAUCCACCGUUUUAACACCUCAGUCUUUGGUAGGAUGAAAUAAUAAAUGAAGAUGCCUAAAAUAGUGUUCCAAACUUUCAUGGUCAUUUUCAUUUUUACUGAAACAUGGAAUUCUCGGGUGCCAA` — result for “RBNS enrichment (R)”: 0.26.
For `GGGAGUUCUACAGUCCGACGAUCAGAGGUCCAAGAACAUGUAUUAUCCAGACUAAAAAAAUGAUUUUUUGUUGUUAUGGUUUACGUGAUGAAAAGGAGAAAAAACAGAAUCAUACCUGGGUGGAGAGAGGGAGUGGAAUUCUCGGGUGCCAA`, “RBNS enrichment (R)” read 0.765.
For `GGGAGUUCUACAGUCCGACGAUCGCAGGAGGUGGACACCCAGCCAGAGGCCUGGCUCAAGGUGACCUCACCUUCACCAUGGGCUUCCUGGGUGCGCGGGCCUGAGCGCAGGUUGUUUUGUACAUAUUGGAAUAUGGAAUUCUCGGGUGCCAA`, “RBNS enrichment (R)” read 0.369.
`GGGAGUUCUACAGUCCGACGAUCUAGACCACUGUGGACUCUAAACUGCACUUGUCUCUCUCAUUUCCUUCAAAUAAUGAUCAAUGCUAUUUCAGUGAGCAAACUGUGAAAGGGGCUUUGGAAAGAGUAGGAGGUGGAAUUCUCGGGUGCCAA`: “RBNS enrichment (R)” 0.676.
Under “RBNS enrichment (R)”, `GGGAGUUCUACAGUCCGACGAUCCGGGCUUUUGUAUAUUACCUGCUGAUCUUGUACACUUAAUCUGUUUACUGUUGUUCACAGAUGAAAACAGAUACGCUAGGGCUAGUUUUGAAAAACACUAAUUCUCUUCAUGGAAUUCUCGGGUGCCAA` is recorded as 0.464.
Under “RBNS enrichment (R)”, `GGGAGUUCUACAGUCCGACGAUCUCAUCACACUAUCCUGACUCCCACGGAAAGCAACAGGAGACCUCGCAUGGUGUCCUACAGCAGCAGUUUCUGUCUUUGUAAUUCCUUGUUGACCACAUACAGCAGGCAGCUGGAAUUCUCGGGUGCCAA` is recorded as 2.64.
`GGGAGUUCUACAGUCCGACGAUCAGGGACAGUGAACACAUUUUGGUUCCUAUCCCAGUGGGUAAGAGGCACUUAUCUCUGGGAAAUUUGCCUCUCUUGGGACUCUCCCCCUCCCAGGCAUUUUCCAUUCCUGGUGGAAUUCUCGGGUGCCAA`: “RBNS enrichment (R)” 0.281.
`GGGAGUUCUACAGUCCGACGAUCAAGCAUUUAGCAAGGUGCCUGGCACAUAGUAAGCACUCAAUAAAUGGUAGUUUUUUUGUUCUUUUAAACUGAGCUCAGCGAGUUUGGCCCACACUGGUGGGCUGCUGGGUUGGAAUUCUCGGGUGCCAA`: “RBNS enrichment (R)” 0.849.

Block 3 — technique: RNA Bind-n-Seq; molecule type: RNA; medium: in vitro; concentration: 200 nM; setting: whole 134-nt RNA, ends assumed; with: 150 mM LiCl; reference: input library; direction: higher = stronger binding; library: 7-deaza-guanosine replaces G
Target: Ras GTPase-activating protein-binding protein 1, full length (G3BP1, Homo sapiens, UniProt Q13283)
Chain of UniProt Q13283 (whole entry, looked up): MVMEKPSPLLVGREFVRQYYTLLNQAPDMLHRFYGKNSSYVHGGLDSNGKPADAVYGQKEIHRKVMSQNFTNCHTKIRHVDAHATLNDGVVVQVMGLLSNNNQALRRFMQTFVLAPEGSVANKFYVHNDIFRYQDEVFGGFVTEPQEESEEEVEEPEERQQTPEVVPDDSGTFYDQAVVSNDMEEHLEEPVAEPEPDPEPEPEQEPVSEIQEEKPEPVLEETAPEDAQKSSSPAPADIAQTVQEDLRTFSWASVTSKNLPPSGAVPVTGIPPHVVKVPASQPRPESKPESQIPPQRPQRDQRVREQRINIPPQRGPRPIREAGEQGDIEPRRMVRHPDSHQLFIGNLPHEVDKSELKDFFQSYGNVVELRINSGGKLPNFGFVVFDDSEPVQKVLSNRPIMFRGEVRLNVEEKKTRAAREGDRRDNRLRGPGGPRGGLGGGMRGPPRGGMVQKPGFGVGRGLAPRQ
For `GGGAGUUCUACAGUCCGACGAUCUGGCCCUGGUGGCAUGCGGGGAGUAAGAGGUGGCCUCAUGGAUCGUGGUGGUCCCGGUGGAAUGUUCAGAGGUGGCCGUGGUGGAGACAGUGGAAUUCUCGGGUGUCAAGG`, the log2 enrichment was 0.487.
For `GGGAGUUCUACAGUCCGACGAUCCCUCAAGUCCUGUGCUACACAUCGUAUGUACCGAAUCGGUGGGGUGGGGUGGGAAAGUAUUAUGUUACGCCGUUCGGAUCUGCACUUCCAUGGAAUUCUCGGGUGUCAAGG`, the log2 enrichment was -0.31.
`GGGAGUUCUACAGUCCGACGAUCAGUCCUGUGCUACACAUCGUAUGUACCGAAUCGGGAAAAAGGGGAAAAAGGAAAAAGGAAAGUAUUAUGUUACGCCGUUCGGAUCUGCACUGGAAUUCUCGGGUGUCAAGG` has a log2 enrichment of -0.204.
With `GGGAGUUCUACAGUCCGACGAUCAGUCCUGUGCUACACAUCGUAUGUACCGAAUCGGGCCCCGGGGCCCCGGCCCCGGGGAAAGUAUUAUGUUACGCCGUUCGGAUCUGCACUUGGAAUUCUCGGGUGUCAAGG` the log2 enrichment was -2.19.
`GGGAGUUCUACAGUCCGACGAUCUAGUGAUGAAAAAUUUCUCCCUUCUAGGUUUCCCUUGGGGGCUUUGAAAUAACACCACCAGUGGUCUUAAGGUUGAAGUGUGGUUCAGGGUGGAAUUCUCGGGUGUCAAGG` has a log2 enrichment of -1.35.
The log2 enrichment of `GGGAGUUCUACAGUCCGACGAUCCAAGUCCUGUGCUACACAUCGUAUGUACCGAAUCGGAAAAAAAGGAGGAAAAAGGAAAGUAUUAUGUUACGCCGUUCGGAUCUGCACUUCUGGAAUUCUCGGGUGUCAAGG` is reported as -0.511.
The log2 enrichment of `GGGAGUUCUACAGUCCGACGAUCUCCUCAAGUCCUGUGCUACACAUCGUAUGUACCGAAUCGGGGUGGUGGUGGAAAGUAUUAUGUUACGCCGUUCGGAUCUGCACUUCCAGCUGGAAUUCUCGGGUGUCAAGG` is reported as -0.749.
The log2 enrichment of `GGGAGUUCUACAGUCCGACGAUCAGUCCUGUGCUACACAUCGUAUGUACCGAAUCGGGUUUUGGGGUUUUGGGGUUUUGGGAAAGUAUUAUGUUACGCCGUUCGGAUCUGCACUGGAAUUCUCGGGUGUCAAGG` is reported as 0.263.
The log2 enrichment of `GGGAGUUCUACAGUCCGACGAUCUAACUUUAGAGGAGGAUCUGAUGGAUAUGGCAGUGUACGUGGAUUUGGGGAUGGCUAUAAUGGGUAUGGAGGAGGACCUGGAGGUGGCAAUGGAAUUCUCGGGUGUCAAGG` is reported as 0.0624.
The log2 enrichment of `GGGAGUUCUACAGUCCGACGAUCUCAAGUCCUGUGCUACACAUCGUAUGUACCGAAUCGGAAAAAAAGGUGGAAAGGAAAGUAUUAUGUUACGCCGUUCGGAUCUGCACUUCCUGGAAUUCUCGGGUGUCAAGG` is reported as -0.559.
`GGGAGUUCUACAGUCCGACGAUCUCAGAGGAAUAUCCUUGACUUCCCCCAGCAUGUUUCCCCCUCCAAGGACAUCCGGACAGCCAGCACAGAGGCCGACAAGAAGCUCUCUGAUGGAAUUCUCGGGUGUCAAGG` gave a log2 enrichment of 0.79.

Block 4 — technique: RNA Bind-n-Seq; molecule type: RNA; medium: in vitro; concentration: not given; reference: input RNA pool; direction: higher = stronger binding
Target: RING finger protein unkempt homolog, zinc fingers 1-6, GST-SBP tag (UNK, Homo sapiens, UniProt Q9C0B0, residues 30-357)
Setting: RNA with constant flanks, human-mouse chimeric sites, ends assumed
Construct (chain): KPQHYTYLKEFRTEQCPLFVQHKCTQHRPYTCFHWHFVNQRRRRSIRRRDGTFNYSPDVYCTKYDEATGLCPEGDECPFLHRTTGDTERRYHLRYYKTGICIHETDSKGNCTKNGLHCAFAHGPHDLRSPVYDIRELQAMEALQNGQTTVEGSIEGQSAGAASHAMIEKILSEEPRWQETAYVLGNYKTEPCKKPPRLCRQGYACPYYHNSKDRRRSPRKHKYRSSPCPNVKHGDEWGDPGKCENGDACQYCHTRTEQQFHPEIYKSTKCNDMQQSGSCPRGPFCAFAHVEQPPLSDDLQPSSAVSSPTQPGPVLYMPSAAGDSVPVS
The bound/input enrichment of `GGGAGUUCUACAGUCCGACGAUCUGGCGCCUGCGCUCCCCACUCGUGUUUUUAAGUGUAUUUUUAUAAGAUACAUGUAUUUACAAUUGAGUUUUUGAUUAAUAAUGCUGAAAUGCUACUGCAAUAUUAUGAAAAUGUUUCAAUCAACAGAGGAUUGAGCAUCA` is reported as 0.0684 ratio.
`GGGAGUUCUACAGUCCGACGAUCAUAGAUGAAAUUGAUGUGGACCAGGAAGGAAUUGCUGAAAUGAUCCUGGAUGAAAAUGCUAUUGCUCAAGUUCCACGCCCUGGCACAUCUUUGAAGCUCCCUGGAACUAACCAAACAGGACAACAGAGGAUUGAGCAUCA` has a bound/input enrichment of 0.4 ratio.
`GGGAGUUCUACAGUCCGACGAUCGGAAGUACAAUGAUGGAGAUUGAUGGUGACAAAGGCAAGCAGGGCGGUCCCACCUACUACAUAGACACCAAUGCCCUCCGCGUGCCCAGGGAGAAUAUGGAGGCCAUCUCACCACUCAAGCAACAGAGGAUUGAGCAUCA` gave a bound/input enrichment of 0.245 ratio.
For `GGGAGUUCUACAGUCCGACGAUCUUUCUACUGCAGCAGACGAUGCUAAGAAUUAAGGAUCCUAAGAAGUCCCUGGAUUUUUAUACGAGGGUUCUUGGACUGACCCUCCUGCAAAAAUGUGACUUCCCUGCUAUGAAGUUCUCGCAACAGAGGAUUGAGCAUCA`, the bound/input enrichment was 0.282 ratio.
The bound/input enrichment of `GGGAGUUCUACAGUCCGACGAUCGUAAUGGACGUCAACACUGCUUUACAAGAGGUGCUGAAGACCGCCCUCAUCCACGAUGGCCUAGCACGUGGCAUACGCGAAGCUGCCAAAGCCUUAGACAAGCGCCAAGCCCAUCUUUGUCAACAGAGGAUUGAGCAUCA` is reported as 0.109 ratio.
For `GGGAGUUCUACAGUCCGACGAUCAUUGUUGAAGCGAAUCCACUUUUAGAAGCCUUUGGAAAUGCAAAGACUGUUCGCAACAAUAAUAGCAGUCGAUUUGGAAAAUUUGUAGAAAUUCAUUUUAAUGAAAAGAGUUCGGUUGUUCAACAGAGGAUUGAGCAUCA`, the bound/input enrichment was 0.623 ratio.
For `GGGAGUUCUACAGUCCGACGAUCCGAGACAAGACAUCCAGGAACAUGCGAGGCUCCCGGAUGAAUGGGUUGCCUAGCCCCACUCAUAGUGCCCACUGUAGCUUCUACCGAACCAGAACCUUGCAGGCACUGAGUAAUGAGAAGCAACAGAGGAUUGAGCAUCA`, the bound/input enrichment was 0.0773 ratio.
The bound/input enrichment of `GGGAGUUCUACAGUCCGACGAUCAAAGUGGACUAUGGCGAGUACAUGGAUAAAAACAAUGUGAGGCGGCAAGCAACAACAAUCAUAGCUGAUAAUAUUAUAUUUCUGAGUGACCAGACAAAAGAAAAGGCGUAGAAAGGAUGACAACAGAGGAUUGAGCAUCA` is reported as 7.97 ratio.
`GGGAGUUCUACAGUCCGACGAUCGAAUCCUACUCAGGCGGAUUUUGCAACACCAAGCUCACAGCAGCAGCAUCUUAGUCACAGUAGGGUAGUUUUGGGGCUCUGUGGCCAUGGUUUUACUCAUGUGCAGGUUUGGAAAAUGUACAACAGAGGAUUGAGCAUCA` has a bound/input enrichment of 1.68 ratio.
`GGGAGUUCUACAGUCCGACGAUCCACGUGUCUGCAGUACUUGAUGUGGAUUACUCUCCCACUGGGAAGGAAUUUGUGUCUGCCAGCUUUGAUAAGUCUAUUAGAAUCUUUCCUGUGGACAAGAGCCGAAGCAGGGAAGUGUAUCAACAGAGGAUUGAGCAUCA` gave a bound/input enrichment of 0.217 ratio.
`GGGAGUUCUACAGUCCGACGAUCUGUGCAUAUGAUGCUUGAGAUGGUUUUUGCAGAUGCAGACAUCGCUGCAAGGUAAUCACAAUAGAUAAAAGUGGUAUUUUAAACCUUUGAAAUAAAUGGAUGUAACUGUACCUUGGUACACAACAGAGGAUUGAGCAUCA` has a bound/input enrichment of 0.602 ratio.
